Results from different studies.
Numbers after ± are the reported error.

COc1ccc(Nc2nc(Nc3ccc(OCCOCC[18F])cc3)ncc2Br)cc1  tissue uptake (ICR mice, S180 tumour-bearing, tumor; intravenous, 370 kBq, 5 min): 3.59 ± 0.36 %ID/g
O=C([O-])CN1CCN(CC(=O)[O-])CCN(CC(=O)NC[C@H]2CC[C@H](C(=O)N[C@H](Cc3cnc4ccccc4c3)C(=O)NCCCC[C@H](NC(=O)N[C@@H](CCC(=O)O)C(=O)O)C(=O)O)CC2)CCN(CC(=O)[O-])CC1.[64Cu+2]  tissue uptake (ex vivo gamma counting; 22Rv1 tumour-bearing mice, spleen; intravenous, 0.74 MBq, 1 h post-injection): 5.56 %ID/g
O=C([O-])CN1CCN(CC(=O)O)CCN(CC(=O)[O-])CCN(CC(=O)NCC2CCC(C(=O)NC(Cc3ccc4ccccc4c3)C(=O)NCCCCC(NC(=O)NC(CCC(=O)O)C(=O)O)C(=O)O)CC2)CC1.[212Pb+2] (centres unmarked)  tissue uptake (athymic mice, C4-2 prostate cancer xenograft, spleen; intravenous, 2 h, 212Pb-labelled): not detected
Cc1cc(C)n(CCN(CCN)CCCCCCNC(=O)[C@@H](N)Cc2c[nH]c3ccccc23)n1.[99Tc+].[C-]#[O+].[C-]#[O+].[C-]#[O+]  tissue uptake (BALB/c nude mice, A549 xenograft, brain; intravenous, 4 h): 0.06 ± 0.01 %IA/g
N#C[C@@H]1CCCN1C(=O)CNC(=O)c1ccnc2ccc(OCCCN3CCN(C(=O)CCc4ccc(O)c(CN5CCN6CC(=O)[O][Al-]([18F])([O]C(=O)C5)[O]c5ccc(CCC(=O)N7CCN(CCCOc8ccc9nccc(C(=O)NCC(=O)N%10CCC[C@H]%10C#N)c9c8)CC7)cc5C6)c4)CC3)cc12 (some centres unmarked)  tissue uptake (BALB/c nude mice, U-87 MG xenograft, muscle; 1 h, blocking, together with: DOTA-FAPI-04 40 nmol/mouse co-injected): 1.55 ± 0.24 %ID/g
Cc1cc(C)n(CCN(CCN)CCCCCCNC(=O)[C@@H](N)Cc2c[nH]cn2)n1.[99Tc+].[C-]#[O+].[C-]#[O+].[C-]#[O+]  tissue uptake (BALB/c nude mice, A549 xenograft, spleen; intravenous, 24 h): 0.31 ± 0.08 %IA/g
CCCC[C@H](NC(=O)COCCOCCNC(=O)CN1CCN(CC(=O)O)CCN(CC(=O)O)CC1)C(=O)N[C@H]1CC(=O)NCCCC[C@@H](C(N)=O)NC(=O)[C@H](Cc2c[nH]c3ccccc23)NC(=O)[C@H](CCCNC(=N)N)NC(=O)[C@@H](Cc2ccccc2)NC(=O)[C@H](Cc2c[nH]cn2)NC1=O [fluorine-18 labelled]  tissue uptake (C57 mice B16-F10 melanoma, stomach; intravenous, 0.37 MBq, 0.5 h): 1.69 ± 0.52 %ID/g
O=C(NCC1OC2CCC=CCCC2O1)c1ccc(COCCOCCOCC[18F])cc1 (centres unmarked)  tissue uptake (healthy female BALB/c nude mice, spleen; intravenous, 7.4 MBq per mouse, 30 min): 2.7 ± 0.01 %ID/g
CCCC[C@H](NC(=O)CNC(=O)CNC(=O)[C@H](CCCCNC(=O)[C@H](CC(N)=O)NC(=O)C(C)c1ccc(CC(C)C)cc1)NC(=O)CN1CCN(CC(=O)O)CCN(CC(=O)O)CCN(CC(=O)O)CC1)C(=O)N[C@H]1CC(=O)NCCCC[C@@H](C(N)=O)NC(=O)[C@H](Cc2c[nH]c3ccccc23)NC(=O)[C@H](CCCNC(=N)N)NC(=O)[C@@H](Cc2ccccc2)NC(=O)[C@H](Cc2c[nH]cn2)NC1=O (some centres unmarked) [lutetium-177 labelled]  tissue uptake (C57 mice, tumour-bearing, pancreas; 2 h): 0.39 ± 0.12 %ID/g
O=C(NCC1OC2CCC=CCCC2O1)c1ccc([18F])nc1 (centres unmarked)  tissue uptake (healthy female BALB/c nude mice, large intestine; intravenous, 7.4 MBq per mouse, 2 min): 3.3 ± 0.2 %ID/g
CCCC[C@H](NC(=O)CNC(=O)CNC(=O)[C@H](CCCCNC(=O)[C@H](CC(=O)O)NC(=O)C(C)c1ccc(CC(C)C)cc1)NC(=O)CN1CCN(CC(=O)O)CCN(CC(=O)O)CCN(CC(=O)O)CC1)C(=O)N[C@H]1CC(=O)NCCCC[C@@H](C(N)=O)NC(=O)[C@H](Cc2c[nH]c3ccccc23)NC(=O)[C@H](CCCNC(=N)N)NC(=O)[C@@H](Cc2ccccc2)NC(=O)[C@H](Cc2c[nH]cn2)NC1=O (some centres unmarked) [lutetium-177 labelled]  tissue uptake (C57 mice, tumour-bearing, heart; intravenous, 0.037 MBq, 24 h): 0.26 ± 0.04 %ID/g
CCCC[C@H](NC(=O)CCCCCCCNC(=O)CN1CCN(CC(=O)O)CCN(CC(=O)O)CC1)C(=O)N[C@H]1CC(=O)NCCCC[C@@H](C(N)=O)NC(=O)[C@H](Cc2c[nH]c3ccccc23)NC(=O)[C@H](CCCNC(=N)N)NC(=O)[C@@H](Cc2ccccc2)NC(=O)[C@H](Cc2c[nH]cn2)NC1=O [fluorine-18 labelled]  tissue uptake (C57 mice B16-F10 melanoma, blood; intravenous, 0.37 MBq, 1 h): 0.43 ± 0.3 %ID/g
O=C(O)CCCOc1ccc([18F])cc1-c1cc(-c2ccccc2C(F)(F)F)n(-c2ccccc2)n1  tissue uptake (mice, bladder and urine; intravenous, 180 min): 0.35 ± 0.15 %ID/g
N#C[C@@H]1CCCN1C(=O)CNC(=O)c1ccnc2ccc(OCCCN3CCN(C(=O)CCc4ccc5c(c4)CN4CCN6CC(=O)[O][68Ga-]([O]C(=O)C4)([O]5)[O]c4ccc(CCC(=O)N5CCN(CCCOc7ccc8nccc(C(=O)NCC(=O)N9CCC[C@H]9C#N)c8c7)CC5)cc4C6)CC3)cc12  tissue uptake (BALB/c nude mice, U-87 MG xenograft, blood; 1 h, blocking, together with: DOTA-FAPI-04 40 nmol/mouse co-injected): 1.1 ± 0.19 %ID/g
CCCC[C@H](NC(=O)CNC(=O)CNC(=O)[C@H](CCCCNC(=O)C(C)c1ccc(CC(C)C)cc1)NC(=O)CN1CCN(CC(=O)O)CCN(CC(=O)O)CCN(CC(=O)O)CC1)C(=O)N[C@H]1CC(=O)NCCCC[C@@H](C(N)=O)NC(=O)[C@H](Cc2c[nH]c3ccccc23)NC(=O)[C@H](CCCNC(=N)N)NC(=O)[C@@H](Cc2ccccc2)NC(=O)[C@H](Cc2c[nH]cn2)NC1=O (some centres unmarked) [lutetium-177 labelled]  tissue uptake (C57 mice, tumour-bearing, liver; 2 h): 15 ± 1.88 %ID/g
COc1ccc(Nc2nc(Nc3ccc(OCCOCCOCC[18F])cc3)ncc2Br)cc1  tissue uptake (ICR mice, S180 tumour, intestine; intravenous, 370 kBq, 60 min): 4.78 ± 0.02 %ID
CC(C)C[C@H](NC(=O)[C@@H](CCCCNC(=O)[C@@H](Cc1ccccc1)NC(=O)CCCCCCCNC(=O)CN1CCN(CC(=O)O)CCN(CC(=O)O)CCN(CC(=O)O)CC1)NC(=O)[C@H](Cc1ccc(O)cc1)NC(=O)[C@H](CO)NC(=O)[C@H](Cc1c[nH]c2ccccc12)NC(=O)[C@H](Cc1c[nH]cn1)NC(=O)[C@@H]1CCC(=O)N1)C(=O)N[C@@H](CCCNC(=N)N)C(=O)N1CCC[C@H]1C(=O)NCC(N)=O [indium-111 labelled]  tissue uptake (biodistribution; male athymic nude mice, DU-145 prostate cancer xenograft, heart; intravenous, 0.037 MBq, 1 h post-injection): 0.2 ± 0.11 %ID/g

For quick reference, copied from above:
CCCC[C@H](NC(=O)CNC(=O)CNC(=O)[C@H](CCCCNC(=O)[C@H](CC(=O)O)NC(=O)C(C)c1ccc(CC(C)C)cc1)NC(=O)CN1CCN(CC(=O)O)CCN(CC(=O)O)CCN(CC(=O)O)CC1)C(=O)N[C@H]1CC(=O)NCCCC[C@@H](C(N)=O)NC(=O)[C@H](Cc2c[nH]c3ccccc23)NC(=O)[C@H](CCCNC(=N)N)NC(=O)[C@@H](Cc2ccccc2)NC(=O)[C@H](Cc2c[nH]cn2)NC1=O (some centres unmarked) [lutetium-177 labelled]  tissue uptake (C57 mice, tumour-bearing, heart; intravenous, 0.037 MBq, 24 h): 0.26 ± 0.04 %ID/g
